Experimental data pooled from the literature.
Each numbered part is a random draw from the data of one study; scales do not carry over between parts.

Study 1
Target: Histone acetyltransferase KAT6A, both winged helices, GST fusion (KAT6A, Homo sapiens, UniProt Q92794, residues 1-181)
Technique: protein binding microarray
Form: double-stranded DNA, one strand shown
Medium: in vitro
Tested at: not given
Setting: 8-mer, flanks averaged, mean of 2 arrays, mostly near background
Relative to: not given
Reading: higher = stronger binding
Construct (chain): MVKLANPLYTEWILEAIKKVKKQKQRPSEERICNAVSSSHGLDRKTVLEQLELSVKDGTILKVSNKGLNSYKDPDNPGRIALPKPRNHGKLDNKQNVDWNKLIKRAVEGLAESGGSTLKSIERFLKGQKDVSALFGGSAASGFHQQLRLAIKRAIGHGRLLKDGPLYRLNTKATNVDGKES
Oligonucleotide | E-score
CAAAGTTA | 0.0298
GAGATTGA | -0.124
AATTCGCA | 0.0395
ATTTTAGC | 0.0337
CCCCTTAG | -0.156
AGATAGAC | -0.151

Study 2
Target: Interferon regulatory factor 5, full length, phosphomimetic (IRF5, Homo sapiens, UniProt Q13568-2, residues 1-514, K96S/S451D/S453D/S456D/S462D)
Technique: protein-binding microarray
Form: double-stranded DNA, one strand shown
Medium: in vitro
Tested at: 250 nM
Setting: 60-bp whole probe
Added: salmon DNA 0.4 mg/ml
Relative to: random background probes
Reading: higher = stronger binding
Oligonucleotide | log fluorescence [z-score]
GCCTAGCACGACGATTTCAGTTTCGAGAAGTGCTAGGTCTTGATTCGCTTGACGCTGCTG | 7.06
GCCTAGCACGACGGTATCAACTTTCGGGACGTGCTAGTCTTGATTCGCTTGACGCTGCTG | 5.5
GCCTAGCACGACGCTATCGACTTTCGGGACGTGCTAGTCTTGATTCGCTTGACGCTGCTG | 6.9
GCCTAGCACTTAGGTTTCGGTCTCGGTAAGTGCTAGGTCTTGATTCGCTTGACGCTGCTG | 10.5

Study 3
Target: Ras GTPase-activating protein-binding protein 1, C-terminal RGG region (G3BP1, Homo sapiens, UniProt Q13283)
Sequence of UniProt Q13283 (whole entry, looked up): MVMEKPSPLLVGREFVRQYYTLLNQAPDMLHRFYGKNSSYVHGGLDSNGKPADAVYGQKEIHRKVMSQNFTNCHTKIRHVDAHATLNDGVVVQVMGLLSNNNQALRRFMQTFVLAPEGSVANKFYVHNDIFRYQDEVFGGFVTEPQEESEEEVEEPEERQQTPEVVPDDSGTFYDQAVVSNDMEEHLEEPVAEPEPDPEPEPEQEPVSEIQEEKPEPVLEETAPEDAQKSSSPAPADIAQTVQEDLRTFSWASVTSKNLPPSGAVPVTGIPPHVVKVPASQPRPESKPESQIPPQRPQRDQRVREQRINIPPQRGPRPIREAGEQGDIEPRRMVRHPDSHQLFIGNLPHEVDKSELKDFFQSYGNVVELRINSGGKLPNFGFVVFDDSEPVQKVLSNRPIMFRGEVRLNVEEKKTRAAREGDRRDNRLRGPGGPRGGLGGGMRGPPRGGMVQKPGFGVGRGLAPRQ
Technique: RNA Bind-n-Seq
Form: RNA
Medium: in vitro
Tested at: 1 µM
Setting: whole 134-nt RNA, ends assumed
Added: 150 mM KCl
Relative to: input library
Reading: higher = stronger binding
Oligonucleotide | log2 enrichment
GGGAGUUCUACAGUCCGACGAUCGUCCUGUGCUACACAUCGUAUGUACCGAAUCGGGGUUUGGGGUUUGGGGUUUUUGGGGAAAGUAUUAUGUUACGCCGUUCGGAUCUGCACUGGAAUUCUCGGGUGUCAAGG | 3.73
GGGAGUUCUACAGUCCGACGAUCUCAAGUCCUGUGCUACACAUCGUAUGUACCGAAUCGGAAAGGGGAAAGGAAAGGAAAGUAUUAUGUUACGCCGUUCGGAUCUGCACUUCCUGGAAUUCUCGGGUGUCAAGG | -1.48
GGGAGUUCUACAGUCCGACGAUCGAAAUUAUGGAAGUGGAAAUUACAAUGAUUUUGGAAAUUAUAACCAGCAACCUUCUAACUACGGUCCAAUGAAGAGUGGAAACUUUGGUGUGGAAUUCUCGGGUGUCAAGG | -1.76
GGGAGUUCUACAGUCCGACGAUCACCAUGCAGGUGGGCAUCUUUGGGAAGUGGGAAAAGGGGGGGAUAGGGAGGGGGGUAACACUUUGGGAACAGGUGGUCCCAGGUCGUUUCUGGAAUUCUCGGGUGUCAAGG | -0.665

Mixed results
Substance | target | test | system | conditions | scale | endpoint | value
PhoQ, residues 284 288 289 292 302 303 TLASMF | PhoP, residues 12 14 15 18 19 LHHVQ (Escherichia coli, UniProt P23836) | Sort-seq, measured: YFP reporter | E. coli | PhoQ-PhoP variant library, added: 10 µM Mg2+ | relative to: high Mg2+ state, higher = stronger signaling | fold induction | 9.43
